Experimental data gathered from unrelated publications.
Lines come from different studies, so protocols differ. Several values in a cell are separate wells, animals, samples, runs or records. ± marks the error that the study gave.
Nuclear receptor subfamily 2 group C member 2 ligand-binding domain: Nuclear receptor subfamily 2 group C member 2, ligand-binding domain (Homo sapiens, UniProt P49116)
Sequence of UniProt P49116 (whole entry, looked up): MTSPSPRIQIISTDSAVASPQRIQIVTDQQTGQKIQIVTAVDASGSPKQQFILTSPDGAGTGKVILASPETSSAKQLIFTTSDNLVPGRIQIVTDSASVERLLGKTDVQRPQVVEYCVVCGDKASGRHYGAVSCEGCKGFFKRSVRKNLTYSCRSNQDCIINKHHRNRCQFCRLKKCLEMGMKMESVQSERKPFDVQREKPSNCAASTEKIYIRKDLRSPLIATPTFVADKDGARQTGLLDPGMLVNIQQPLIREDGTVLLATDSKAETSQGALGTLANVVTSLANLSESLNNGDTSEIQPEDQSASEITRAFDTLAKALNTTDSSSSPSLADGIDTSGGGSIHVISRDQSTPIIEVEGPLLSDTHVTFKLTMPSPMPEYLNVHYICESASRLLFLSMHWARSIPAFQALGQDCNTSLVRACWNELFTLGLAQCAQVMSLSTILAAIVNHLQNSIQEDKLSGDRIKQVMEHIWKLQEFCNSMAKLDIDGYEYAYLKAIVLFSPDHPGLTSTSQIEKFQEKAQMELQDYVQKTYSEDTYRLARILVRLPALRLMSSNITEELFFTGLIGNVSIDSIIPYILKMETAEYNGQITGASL
XPO1: Exportin-1 (XPO1, Homo sapiens, UniProt O14980)
Sequence of UniProt O14980 (whole entry, looked up): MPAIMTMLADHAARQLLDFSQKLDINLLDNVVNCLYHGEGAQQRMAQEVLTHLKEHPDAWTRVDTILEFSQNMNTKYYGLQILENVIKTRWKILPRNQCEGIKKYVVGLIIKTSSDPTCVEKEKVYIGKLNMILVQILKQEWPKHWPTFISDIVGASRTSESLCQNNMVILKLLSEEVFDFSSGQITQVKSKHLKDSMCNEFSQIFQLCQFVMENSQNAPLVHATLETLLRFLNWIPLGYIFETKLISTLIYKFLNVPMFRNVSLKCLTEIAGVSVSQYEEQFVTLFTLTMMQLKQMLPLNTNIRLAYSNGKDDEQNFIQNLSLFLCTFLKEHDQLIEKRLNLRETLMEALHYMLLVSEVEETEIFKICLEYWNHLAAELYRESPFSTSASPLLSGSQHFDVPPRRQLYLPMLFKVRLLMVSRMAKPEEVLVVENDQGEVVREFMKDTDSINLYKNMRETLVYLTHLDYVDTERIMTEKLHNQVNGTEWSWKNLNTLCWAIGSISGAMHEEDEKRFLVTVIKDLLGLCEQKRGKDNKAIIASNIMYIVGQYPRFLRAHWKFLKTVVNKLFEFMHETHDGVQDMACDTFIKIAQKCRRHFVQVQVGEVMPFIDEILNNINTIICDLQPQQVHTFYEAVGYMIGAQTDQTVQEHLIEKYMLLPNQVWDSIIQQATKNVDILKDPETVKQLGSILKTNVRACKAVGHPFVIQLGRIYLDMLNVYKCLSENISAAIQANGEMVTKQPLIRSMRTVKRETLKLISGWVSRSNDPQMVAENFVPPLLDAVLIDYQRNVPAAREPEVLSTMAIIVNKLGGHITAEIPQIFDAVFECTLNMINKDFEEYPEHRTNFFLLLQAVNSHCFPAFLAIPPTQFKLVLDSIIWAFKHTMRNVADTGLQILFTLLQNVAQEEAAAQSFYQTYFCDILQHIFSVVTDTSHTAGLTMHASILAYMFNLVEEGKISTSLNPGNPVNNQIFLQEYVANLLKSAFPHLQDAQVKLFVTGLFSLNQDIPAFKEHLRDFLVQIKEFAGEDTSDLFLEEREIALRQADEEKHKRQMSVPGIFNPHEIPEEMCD
Pancreatic alpha-amylase: Pancreatic alpha-amylase (Homo sapiens, UniProt P04746)
Sequence of UniProt P04746 (whole entry, looked up): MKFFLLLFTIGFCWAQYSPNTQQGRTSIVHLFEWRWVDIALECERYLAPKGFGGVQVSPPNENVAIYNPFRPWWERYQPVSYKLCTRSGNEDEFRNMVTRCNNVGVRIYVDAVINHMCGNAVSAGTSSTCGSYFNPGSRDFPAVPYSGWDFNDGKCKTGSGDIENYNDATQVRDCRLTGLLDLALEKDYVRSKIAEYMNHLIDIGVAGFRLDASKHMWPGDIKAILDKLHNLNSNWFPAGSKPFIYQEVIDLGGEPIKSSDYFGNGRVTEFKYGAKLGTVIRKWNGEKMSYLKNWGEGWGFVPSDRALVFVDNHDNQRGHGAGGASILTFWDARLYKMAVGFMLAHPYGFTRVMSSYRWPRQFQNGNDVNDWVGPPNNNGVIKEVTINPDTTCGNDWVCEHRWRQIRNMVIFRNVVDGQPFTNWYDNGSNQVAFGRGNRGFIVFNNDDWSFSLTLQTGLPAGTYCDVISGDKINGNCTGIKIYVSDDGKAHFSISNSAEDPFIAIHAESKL
TOP2A: DNA topoisomerase 2-alpha (TOP2A, Homo sapiens, UniProt P11388)
Sequence of UniProt P11388 (whole entry, looked up): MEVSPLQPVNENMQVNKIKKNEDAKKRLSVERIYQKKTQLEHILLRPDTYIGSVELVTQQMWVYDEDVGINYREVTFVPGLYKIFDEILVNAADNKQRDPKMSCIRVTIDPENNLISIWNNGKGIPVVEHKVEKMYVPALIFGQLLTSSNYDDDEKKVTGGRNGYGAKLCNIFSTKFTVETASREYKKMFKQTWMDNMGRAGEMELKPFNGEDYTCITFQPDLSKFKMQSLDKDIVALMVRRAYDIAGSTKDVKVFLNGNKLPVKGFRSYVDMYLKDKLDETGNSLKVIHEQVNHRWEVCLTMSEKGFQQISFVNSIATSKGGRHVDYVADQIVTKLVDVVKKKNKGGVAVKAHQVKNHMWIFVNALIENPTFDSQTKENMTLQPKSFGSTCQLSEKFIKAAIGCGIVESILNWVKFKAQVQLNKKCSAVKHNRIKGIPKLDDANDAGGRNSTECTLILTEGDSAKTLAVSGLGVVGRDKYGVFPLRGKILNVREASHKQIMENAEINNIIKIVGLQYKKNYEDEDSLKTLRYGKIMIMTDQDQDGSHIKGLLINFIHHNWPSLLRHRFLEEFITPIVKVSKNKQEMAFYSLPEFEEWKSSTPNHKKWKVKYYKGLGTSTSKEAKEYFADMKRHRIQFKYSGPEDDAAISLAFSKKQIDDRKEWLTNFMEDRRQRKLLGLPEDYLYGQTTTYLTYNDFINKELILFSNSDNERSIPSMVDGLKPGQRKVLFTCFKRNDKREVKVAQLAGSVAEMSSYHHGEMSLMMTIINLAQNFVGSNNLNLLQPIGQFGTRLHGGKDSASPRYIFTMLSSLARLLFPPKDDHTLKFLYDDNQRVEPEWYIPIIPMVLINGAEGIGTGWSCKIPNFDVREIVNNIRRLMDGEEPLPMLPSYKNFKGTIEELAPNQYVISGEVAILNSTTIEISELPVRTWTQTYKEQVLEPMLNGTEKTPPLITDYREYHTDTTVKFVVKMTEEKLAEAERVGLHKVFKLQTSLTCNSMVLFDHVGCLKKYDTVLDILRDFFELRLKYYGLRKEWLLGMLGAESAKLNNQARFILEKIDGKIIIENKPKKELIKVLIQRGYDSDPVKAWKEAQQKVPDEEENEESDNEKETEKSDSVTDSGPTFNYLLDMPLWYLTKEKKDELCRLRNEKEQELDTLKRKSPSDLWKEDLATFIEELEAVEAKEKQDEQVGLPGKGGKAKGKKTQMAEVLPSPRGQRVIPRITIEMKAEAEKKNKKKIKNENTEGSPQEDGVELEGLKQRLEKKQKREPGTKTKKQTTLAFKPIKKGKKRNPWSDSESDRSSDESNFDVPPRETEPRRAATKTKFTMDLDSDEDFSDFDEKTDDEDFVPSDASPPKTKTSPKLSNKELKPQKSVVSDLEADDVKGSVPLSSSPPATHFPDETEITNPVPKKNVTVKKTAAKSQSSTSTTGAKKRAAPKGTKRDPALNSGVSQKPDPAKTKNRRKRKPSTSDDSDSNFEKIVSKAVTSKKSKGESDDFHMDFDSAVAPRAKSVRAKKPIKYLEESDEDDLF
HTR4: 5-hydroxytryptamine receptor 4 (HTR4, Homo sapiens, UniProt Q13639)
T1: riboswitch RNA yjdF aptamer (Bacillus subtilis); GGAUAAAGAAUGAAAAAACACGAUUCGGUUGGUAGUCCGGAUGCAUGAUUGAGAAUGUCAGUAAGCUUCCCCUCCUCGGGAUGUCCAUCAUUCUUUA
Sequence of UniProt Q16774 (whole entry, looked up): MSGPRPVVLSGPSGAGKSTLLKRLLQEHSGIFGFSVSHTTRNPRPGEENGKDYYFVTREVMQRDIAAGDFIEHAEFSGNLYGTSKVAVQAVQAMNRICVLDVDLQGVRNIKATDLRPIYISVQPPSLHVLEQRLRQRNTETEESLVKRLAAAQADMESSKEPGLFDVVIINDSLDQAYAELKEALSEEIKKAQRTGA
Sequence of UniProt P27361 (whole entry, looked up): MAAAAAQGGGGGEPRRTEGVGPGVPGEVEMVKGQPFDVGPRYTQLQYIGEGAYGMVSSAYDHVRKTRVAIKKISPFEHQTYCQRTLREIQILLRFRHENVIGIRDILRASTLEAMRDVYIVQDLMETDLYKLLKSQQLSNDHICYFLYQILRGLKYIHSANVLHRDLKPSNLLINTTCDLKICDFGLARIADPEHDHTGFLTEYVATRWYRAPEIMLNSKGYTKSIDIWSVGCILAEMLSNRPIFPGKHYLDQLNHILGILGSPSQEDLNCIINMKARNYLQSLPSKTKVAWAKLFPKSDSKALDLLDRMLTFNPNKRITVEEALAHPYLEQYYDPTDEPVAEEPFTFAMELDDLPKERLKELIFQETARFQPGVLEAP
Sequence of UniProt P51575 (whole entry, unmodified, looked up): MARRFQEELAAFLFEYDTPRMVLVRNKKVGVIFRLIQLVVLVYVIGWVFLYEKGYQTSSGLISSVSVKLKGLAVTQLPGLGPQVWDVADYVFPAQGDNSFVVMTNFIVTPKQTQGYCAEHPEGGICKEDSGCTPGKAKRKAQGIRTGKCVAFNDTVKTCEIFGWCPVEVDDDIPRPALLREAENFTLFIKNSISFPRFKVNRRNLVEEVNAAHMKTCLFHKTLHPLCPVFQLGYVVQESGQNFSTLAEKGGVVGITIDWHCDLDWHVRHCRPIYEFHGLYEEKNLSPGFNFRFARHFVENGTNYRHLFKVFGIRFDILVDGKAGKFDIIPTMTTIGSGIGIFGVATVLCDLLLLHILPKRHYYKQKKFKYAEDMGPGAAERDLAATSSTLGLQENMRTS
Sequence of UniProt P12763 (whole entry, unmodified, looked up): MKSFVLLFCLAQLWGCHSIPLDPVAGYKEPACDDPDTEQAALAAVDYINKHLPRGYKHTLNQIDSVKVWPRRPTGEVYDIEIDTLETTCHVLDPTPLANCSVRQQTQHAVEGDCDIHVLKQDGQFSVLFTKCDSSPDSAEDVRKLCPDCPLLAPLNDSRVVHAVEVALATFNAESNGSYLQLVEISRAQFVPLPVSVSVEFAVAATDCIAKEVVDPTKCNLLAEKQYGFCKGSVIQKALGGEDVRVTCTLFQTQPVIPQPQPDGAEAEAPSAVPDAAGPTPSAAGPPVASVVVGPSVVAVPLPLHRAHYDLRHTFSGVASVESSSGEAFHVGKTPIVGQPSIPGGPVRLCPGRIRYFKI

SMILES	target or system	test	test system	setting	how to read	endpoint	result
Cc1cc(C(C#N)c2ccc(Cl)cc2)c(Cl)cc1NC(=O)c1cc(I)cc(I)c1O (stereo not shown)	Nuclear receptor subfamily 2 group C member 2 ligand-binding domain	SPR imaging	–	600 nM	–	koff	1.11e-05 s⁻¹
Nc1[nH]nc2nnc(-c3c(-c4ccccc4)nn4ccccc34)cc12	MAPK3 (Homo sapiens, UniProt P27361)	ADP-Glo	–	3.98 µM, with: MBP substrate	–	kinase activity	30.4% and 15.9% and 30.8%
CC(C)C[C@@H]1NC(=O)[C@H](C(C)C)NC(=O)CNC(=O)[C@H](CC(N)=O)NC(=O)[C@@H]2CCCN2C(=O)[C@H](Cc2ccc(O)cc2)NC(=O)[C@H](CCCNC(=N)N)NC(=O)[C@H](Cc2ccccc2)NC(=O)[C@@H](NC(=O)[C@H](CCCCN)NC(=O)[C@H](C)NC(=O)[C@H](CO)NC(=O)[C@H](C)NC(=O)[C@@H](N)Cc2ccc(O)cc2)CSSC[C@@H](C(=O)N[C@H](C(N)=O)[C@@H](C)O)NC(=O)[C@H](C)NC1=O	Alpha-2-HS-glycoprotein, asialo (AHSG, Bos taurus, UniProt P12763)	binding, isothermal titration calorimetry	–	pH 7.0, 25 °C, with: asialofetuin	–	-TΔS	-13.9 kJ/mol
CC[C@H](C)[C@@H]1NC(=O)[C@H](CCCNC(=N)N)NC(=O)[C@@H]2CCCN2C(=O)[C@H](Cc2ccccc2)NC(=O)[C@H]([C@@H](C)O)NC(=O)CNC(=O)[C@H](CC(C)C)NC(=O)[C@@H]2CCCN2C(=O)[C@H]([C@@H](C)O)NC(=O)[C@H](Cc2c[nH]c3ccccc23)NC(=O)[C@H](Cc2ccc(O)cc2)NC(=O)[C@H]([C@@H](C)CC)NC(=O)[C@H]([C@@H](C)O)NC(=O)[C@H]([C@@H](C)O)NC(=O)[C@@H](Cc2ccc(O)cc2)NC(=O)CSC[C@@H](C(N)=O)NC(=O)[C@H](CCCNC(=N)N)NC1=O	VPS35/VPS29 (Homo sapiens, UniProt Q96QK1+Q9UBQ0)	binding, ITC	–	25 °C, heterodimer	–	ΔG	-41 ± 0.293 kJ/mol
O=C(/C=C/c1ccc(O)cc1)c1ccc(O)cc1O	OCI-Ly1	–	–	0.1 µM, 120 h	–	viability	197%
CC(Nc1nc(N2CCCC2)nc2ccccc12)c1ccccc1 (stereo not shown)	XPO1	nuclear export, high content imaging	HeLa Kyoto reporter	3.17 µM, 2 h	–	cells with nuclear reporter	1.42% and 5.32% and 3.37%
C=CC(=O)N1CCC[C@@H](n2nc(-c3ccc(Oc4ccccc4)cc3)c3c(N)ncnc32)C1	ERBB3 (Homo sapiens, UniProt P21860)	–	–	1 µM	–	remaining activity	206%
O=C1OC(c2ccccc2)=N/C1=C\c1ccc(O)c(O)c1	Pancreatic alpha-amylase	inhibitor, Lineweaver-Burk	–	100 ppm, with: starch substrate	–	Km	1090 µM
Oc1ccc([C@@H]2c3c(O)cc(O)cc3[C@@H]3c4c(cc(O)c5c4[C@@H]2[C@H](c2ccc(O)cc2)[C@H]5c2cc(O)cc4c2[C@@H](c2cc(O)cc(O)c2)[C@H](c2ccc(O)cc2)O4)O[C@H]3c2ccc(O)cc2)cc1	Pancreatic alpha-amylase	enzyme activity	–	10 µM	–	Vmax	1760 ± 639 µmol/min
C[C@@H](c1ccc(-n2cnc3c(N)ncnc32)cc1)N1CCc2nn(C)c(Cc3ccccc3)c2C1=O	EGFR (Homo sapiens, UniProt P00533, del746-750)	KINOMEscan	–	0.1 µM	reference: DMSO control	remaining binding	70%
COCCC(=O)N1CCC(Oc2ccccc2)C1 (stereo not shown)	E3 SUMO-protein ligase PIAS1 (PIAS1, Homo sapiens, UniProt O75925)	binding, affinity selection mass spectrometry	–	–	reference: other proteins in batch	fold enrichment	1.13
c1coc(-c2n[nH]cc2-c2ccnc3ccccc23)c1	Serine/threonine-protein kinase GIN4 (GIN4, Candida albicans, UniProt Q59W62)	kinase binding, MIB/MS competition	Candida albicans lysate	1 µM	reference: DMSO, negative = stronger binding	log2 fold change	-0.32
O=c1nc(SCc2cc(F)cc(C(F)(F)F)c2)nc(SCc2ccc3sccc3c2)[nH]1	TOP2A	DNA cleavage, competition with etoposide	–	15.6 µM, with: etoposide 50 µM	–	linear DNA	11.3% and 9.52%
CC1CCCN(C(=O)c2cc3ncccn3n2)C1 (stereo not shown)	F-box only protein 22, with SKP1 (Homo sapiens, UniProt Q8NEZ5)	binding, affinity selection mass spectrometry	–	–	reference: other proteins in batch	log fold enrichment	-0.0889
CC1CCc2c(N3CCC(O)CC3)c(F)cc3c(=O)c(C(=O)O)cn1c23 (stereo not shown)	Nuclear receptor subfamily 2 group C member 2 ligand-binding domain	SPR imaging	–	600 nM	–	koff	2.94e-07 s⁻¹
CN(C(=O)n1cnc(-c2ccc[n+]([O-])c2)c1)C1CCCCC1	Faah (Mus musculus, UniProt O08914)	enzyme activity, inhibitor	NMRI mouse, liver	oral, 1 h	–	ED50	0.011 mg/kg
O=C(CN1CCO[C@@H](COc2ccccn2)C1)N1CCc2ccccc21	HTR4	radioligand binding	–	concentration not given	–	inhibition	-16.8%
CC(C)[C@H](NC(=O)c1cc(-c2cnn3cc(-c4ccc(OCCN5CCCCC5)cc4)cnc23)cs1)C(F)(F)F	RIPK1 (human)	radiometric kinase	–	15 nM	reference: RIPK1 over ULK1	relative inhibition	0.0114
O=C(O)CNC(=O)C(=O)O	OCI-Ly1	–	–	0.1 µM, 120 h	–	viability	181%

SMILES	target or system	test	test system	setting	how to read	endpoint	result
CCS(=O)(=O)c1nc(C2CC2)cc(C(F)(F)F)n1	XPO1	nuclear export, high content imaging	HeLa Kyoto reporter	0.5 µM, 2 h	–	cells with nuclear reporter	3.37% and 2.44% and 4.48%
O=[N+]([O-])c1cc(C(F)(F)F)ccc1NCc1ccsc1	Endothelial PAS domain-containing protein 1, PAS-B domain (EPAS1, Homo sapiens, UniProt Q99814, N288Q)	binding, ITC, reverse mode	–	–	–	ΔG	-34.5 ± 1.46 kJ/mol
Nc1ncnc2c1ncn2[C@@H]1O[C@H](CO)[C@@H](O)[C@H]1O	Nuclear receptor subfamily 2 group C member 2 ligand-binding domain	SPR imaging	–	600 nM	–	koff	7.71e-05 s⁻¹
Cc1cc2nc3[nH]c(=O)[nH]c(=O)c3nc2cc1C	T1, riboswitch RNA yjdF aptamer (Bacillus subtilis)	fluorescence titration	–	with: 380 nM lumichrome	–	Kd	0.04 µM
CNCCCC[C@H](NC(=O)[C@@H](NC(=O)[C@H](CCCNC(=N)N)NC(=O)[C@H](C)N)[C@@H](C)O)C(=O)N[C@@H](CCC(N)=O)C(=O)N[C@H](C(=O)N[C@@H](C)C(=O)N[C@@H](CCCNC(=N)N)C(=O)N[C@@H](CCCCN)C(=O)N[C@@H](CO)C(=O)N[C@H](C(=O)NCC(=O)NCC(=O)N[C@@H](CCCCN)C(=O)N[C@@H](C)C(=O)N[C@@H](Cc1ccc(O)cc1)C(=O)O)[C@@H](C)O)[C@@H](C)O	Transcriptional regulator ATRX (ATRX, Homo sapiens, UniProt P46100, F284Y/K251R)	isothermal titration calorimetry	–	pH 7.5, 25.0 °C	–	binding free energy	-26.6 kJ/mol
COc1ccc2c(c1)C(=O)N(CCN1CCN(c3ccccc3OC)CC1)C2	HTR4	radioligand binding	–	concentration not given	–	inhibition	11.8%
Oc1ccc(/C=C/c2cc(O)cc(O)c2)cc1	O-methyltransferase (Sorghum bicolor, UniProt A0A1B6PFV1)	ITC	–	with: ADN+	–	-TΔS	25 kJ/mol
Nc1ncnc2c1ncn2[C@@H]1O[C@H](COP(=O)(O)CP(=O)(O)OP(=O)(O)O)[C@@H](O)[C@H]1O	P2X purinoceptor 1 (P2RX1, Homo sapiens, UniProt P51575, S286A)	calcium influx	–	1 µM	reference: ionomycin response	calcium influx	83.5% and 99.8% and 100%
OC[C@H]1OC(O)[C@H](O)[C@@H](O)[C@@H]1O (stereo partly shown)	Hexokinase-3 (HK3, Homo sapiens, UniProt P52790)	isothermal titration calorimetry	–	25 °C	–	entropic term TΔS	-55.2 ± 1.67 kJ/mol
C=CC(=O)N1CCC(C(=O)NCC(=O)N2CCN(c3nc(-c4cnc(N)nc4C(F)F)nc(N4CCOCC4)n3)CC2)CC1	ACVR2B (Homo sapiens, UniProt Q13705)	KINOMEscan	–	1 µM	–	remaining binding	91%
O=C(CCCN1CCCN(c2ccc(Cl)cc2)CC1)c1ccc(F)cc1	HTR1A (Homo sapiens, UniProt P08908)	cAMP level, antagonist, GloSensor cAMP	–	–	–	Emax	6.5%
CCCC[C@H]1CN(c2cccc(OC(F)(F)F)c2)C(=O)CN1Cc1cncn1Cc1ccccc1	Cryptococcus neoformans farnesyltransferase	enzyme activity, inhibitor, fluorescence	–	with: 1 µM FPP, 0.5 µM dansylated peptide	–	IC50	1.9 ± 1.7 µM
Nc1nc2c(ncn2[C@@H]2O[C@H](COP(=O)(O)O)[C@@H](O)[C@H]2O)c(=O)[nH]1	GUK1 (Homo sapiens, UniProt Q16774)	enzyme activity, NADH-coupled	–	31.25 µM	–	reaction rate	41.1 s⁻¹ and 33.6 s⁻¹ and 39.4 s⁻¹
O=C1NC(=O)/C(=C/c2ccc(-c3ccc(F)cc3O)o2)S1	PIM2 (Homo sapiens, UniProt Q9P1W9)	enzyme activity	–	10 µM	–	remaining activity	7%
Cc1cccc(N2CC(C(=O)O)CC2=O)c1 (stereo not shown)	S-phase kinase-associated protein 1 (SKP1, Homo sapiens, UniProt P63208)	binding, affinity selection mass spectrometry	–	–	reference: other proteins in batch	log fold enrichment	0.0239
CC1(C)S[C@@H]2[C@H](NC(=O)[C@H](NC(=O)N3CCNC3=O)c3ccccc3)C(=O)N2[C@H]1C(=O)O	Nuclear receptor subfamily 2 group C member 2 ligand-binding domain	SPR imaging	–	600 nM	–	koff	9.28e-07 s⁻¹
O=c1nc(SCc2cc(F)cc(C(F)(F)F)c2)nc(SCc2ccc3nc(Cl)ccc3c2)[nH]1	TOP2A	ATPase activity	–	125 µM, with: ATP 0.075 mM	–	ATP hydrolysis rate	0.259 µM/min and 0.55 µM/min
Nc1ncnc2c1ncn2[C@@H]1O[C@H](COP(=O)(O)OP(=O)(O)O)[C@@H](O)[C@H]1O	PKM (Oryctolagus cuniculus, UniProt P11974)	substrate	–	pH 8.0, 25 °C, MgCl2, KCl, with: PEP varied	–	Kia	106 µM

For quick reference, copied from above:
SMILES	target or system	test	test system	setting	how to read	endpoint	result
O=C(CN1CCO[C@@H](COc2ccccn2)C1)N1CCc2ccccc21	HTR4	radioligand binding	–	concentration not given	–	inhibition	-16.8%
CN(C(=O)n1cnc(-c2ccc[n+]([O-])c2)c1)C1CCCCC1	Faah (Mus musculus, UniProt O08914)	enzyme activity, inhibitor	NMRI mouse, liver	oral, 1 h	–	ED50	0.011 mg/kg
CC(Nc1nc(N2CCCC2)nc2ccccc12)c1ccccc1 (stereo not shown)	XPO1	nuclear export, high content imaging	HeLa Kyoto reporter	3.17 µM, 2 h	–	cells with nuclear reporter	1.42% and 5.32% and 3.37%
CNCCCC[C@H](NC(=O)[C@@H](NC(=O)[C@H](CCCNC(=N)N)NC(=O)[C@H](C)N)[C@@H](C)O)C(=O)N[C@@H](CCC(N)=O)C(=O)N[C@H](C(=O)N[C@@H](C)C(=O)N[C@@H](CCCNC(=N)N)C(=O)N[C@@H](CCCCN)C(=O)N[C@@H](CO)C(=O)N[C@H](C(=O)NCC(=O)NCC(=O)N[C@@H](CCCCN)C(=O)N[C@@H](C)C(=O)N[C@@H](Cc1ccc(O)cc1)C(=O)O)[C@@H](C)O)[C@@H](C)O	Transcriptional regulator ATRX (ATRX, Homo sapiens, UniProt P46100, F284Y/K251R)	isothermal titration calorimetry	–	pH 7.5, 25.0 °C	–	binding free energy	-26.6 kJ/mol
O=C(O)CNC(=O)C(=O)O	OCI-Ly1	–	–	0.1 µM, 120 h	–	viability	181%
